Experimental data of several laboratories.
Each line is one published result; not all experiments were run side by side. Values joined by “and” are separate records of one study, mostly repeats; a detail may differ.
Target: Serine/threonine-protein kinase 25 (STK25, Homo sapiens, UniProt O00506)
Chain of UniProt O00506 (whole entry, looked up): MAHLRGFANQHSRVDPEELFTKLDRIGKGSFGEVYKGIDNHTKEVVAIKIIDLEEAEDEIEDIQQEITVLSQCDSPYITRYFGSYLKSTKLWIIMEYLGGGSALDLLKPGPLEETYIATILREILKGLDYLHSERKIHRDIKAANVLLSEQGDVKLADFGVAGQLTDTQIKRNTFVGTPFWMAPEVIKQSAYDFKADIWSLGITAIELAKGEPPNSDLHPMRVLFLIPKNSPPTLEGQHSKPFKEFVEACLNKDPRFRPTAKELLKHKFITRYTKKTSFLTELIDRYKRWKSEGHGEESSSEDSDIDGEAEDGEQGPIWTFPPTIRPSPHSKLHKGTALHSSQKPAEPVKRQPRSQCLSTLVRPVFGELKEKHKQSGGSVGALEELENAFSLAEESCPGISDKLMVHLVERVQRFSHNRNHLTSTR

SMILES	assay	setting	how to read	endpoint	result
CN1CC[C@@H](COc2cnc(C#N)cc2-c2ccn3nc(NC(=O)C4CC4)cc3c2)C1	enzyme activity, inhibitor	1 µM		inhibition	-3%
NC(=O)C[C@H]1CCc2sc3ncnc(O[C@H]4CC[C@H](N5CCOCC5)CC4)c3c21	enzyme activity, inhibitor	10 µM		inhibition	10%
CNC1C[S+]2CC[S+]3CC[S+](C1)[Ru-4]321([N]=C=S)[n]2c3ccc(OC)cc3c3c4c(c5cc(F)c[n+]1c5c32)C(=O)NC4=O (centres unmarked)	KinomeScan	0.1 µM	reference: untreated	remaining binding	98%
Cc1ccc(-c2c(/C=C(\C#N)C(=O)NC(C)C)n(CCCO)c3ncnc(N)c23)cc1	cell-free assay, competition with immobilised ligand	1 µM		remaining binding	100%
C=CC(=O)Nc1cccc(-c2cnc3[nH]cc(C(=O)NC(C)(C)C)c3n2)c1	kinase activity	0.1 µM		inhibition	11% and 8%
COc1cc(Nc2nccc(-c3cnn4nc(OC)ccc34)n2)cc(C(F)(F)F)c1	binding, competition with immobilised ligand	1 µM		remaining binding	95%
CCN1CCN(Cc2ccc(NC(=O)c3ccc(C)c(NC(=O)c4cncc(-c5cnn(C)c5)c4)c3)cc2C(F)(F)F)CC1	binding, competition with immobilised ligand	1 µM		remaining binding	74%
Cc1cccc(O[C@H]2CCC[C@@H](C(C)CNCc3ccncc3)C2)c1 (relative stereo)	enzyme activity, inhibitor	10 µM		inhibition	-2%
CN1CCN(Cc2ccc(-c3ccc(CO[C@H]4CCC[C@@H]4NC(=O)c4cc(-c5cnn(C)c5)cnc4N)cc3)cc2)CC1	enzyme activity, inhibitor	0.1 µM		inhibition	11%
CNC(=O)C1CCN(c2cc(C)c(F)cc2NC(=O)c2ccc(-c3cc(O)ccc3C)c(C)c2)CC1	binding, competition with immobilised ligand	1 µM		remaining binding	98%
COc1ccc(C(=O)/C=C/c2ccccc2-c2c[nH]c3ccc(C#N)cc23)c(O)c1	enzyme activity, inhibitor	20 µM		inhibition	-4%
Cc1cnc2nc1Nc1cccc(c1)COC/C=C/COCc1cc(ccc1OCCN1CCOCC1)N2	binding, competition with immobilised ligand	0.1 µM		remaining binding	100%
CCn1cc(C(=O)O)c(=O)c2c(N)c(F)c(NC3CCCCC3)cc21	kinase activity	0.1 µM, with: ATP at Km		inhibition	10.5%
CC(C)=CC1OC(C)(C)C2C=C3C(=O)C(Cl)=CC(O)C3C3C(O)C4OC4C(=O)C132 (centres unmarked)	cell-free assay, competition with immobilised ligand	10 µM		remaining binding	86%
